Measurements gathered from unrelated publications.
A part holds a random share of what one study measured. Positions count from the first letter of the parent shown.

Block 1 — method: universal PBM; molecule type: double-stranded DNA, one strand shown; sample: in vitro; concentration: not given; reading: higher = stronger binding
Target: Sal-like protein 4, full length isoform B (SALL4, Homo sapiens, UniProt Q9UJQ4-2, residues 1-616)
Notes: 8-mer, flanks averaged, mean of replicates
With `ATGCGAAT` the E-score was 0.156.
With `CAACTAGG` the E-score was -0.0374.
With `CACGCATA` the E-score was 0.0339.
`AATAATAC` gave an E-score of 0.371.
The E-score of `CTGAACCA` is reported as -0.129.
The E-score of `CCATGGGC` is reported as -0.392.
The E-score of `GCCGACCA` is reported as -0.248.
With `GAAGTCCC` the E-score was -0.24.
`AGGTCTGA` gave an E-score of -0.0748.
`AGGTAGAA` gave an E-score of 0.148.
`GCGACTCA` has an E-score of -0.147.
`CGGTGGTC` gave an E-score of -0.268.
`CGTTCGAA` has an E-score of 0.0587.
For `GAGATGGA`, the E-score was -0.204.
For `CGTAAATA`, the E-score was 0.308.
`CGAATGGA` has an E-score of -0.0651.
With `CCTGGCTA` the E-score was -0.107.
For `GGTCTTAC`, the E-score was -0.126.
The E-score of `CAAACACA` is reported as 0.136.
For `AGTCCAAG`, the E-score was -0.0802.
`CAGGGGTA` gave an E-score of -0.0498.
`AACTAGAA` gave an E-score of 0.181.
For `CATTCGGA`, the E-score was 0.0262.
`ACGGTTCC` gave an E-score of -0.144.
`AGATCAAT` gave an E-score of 0.125.

Block 2 — method: protein-binding microarray; molecule type: double-stranded DNA, one strand shown; sample: in vitro; concentration: not given; reading: higher = stronger binding
Target: TATA-box-binding protein 1 (TBP1, Arabidopsis thaliana, UniProt P28147, residues 1-200, full length assumed)
Notes: k-mer, scored over probes, only values ≥0.25
Target sequence (chain): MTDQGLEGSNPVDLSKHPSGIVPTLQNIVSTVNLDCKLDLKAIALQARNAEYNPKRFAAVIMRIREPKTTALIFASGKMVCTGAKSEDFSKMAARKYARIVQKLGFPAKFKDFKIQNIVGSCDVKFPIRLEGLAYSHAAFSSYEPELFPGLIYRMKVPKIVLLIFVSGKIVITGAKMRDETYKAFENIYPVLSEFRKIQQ
With `TATATGA` the E-score was 0.412.
For `TAAAAAA`, the E-score was 0.371.
For `CATTAAA`, the E-score was 0.344.
For `ATTTAAC`, the E-score was 0.379.
`TACATAA` gave an E-score of 0.322.
`AAAATAC` gave an E-score of 0.288.
With `ATATCGC` the E-score was 0.282.
With `AATAAGA` the E-score was 0.286.
With `ATGAATA` the E-score was 0.28.
For `AACTTTA`, the E-score was 0.259.
The E-score of `GTCATAA` is reported as 0.26.
`GTTAAAA` has an E-score of 0.338.
For `ATTTCTA`, the E-score was 0.287.
The E-score of `CCATTTA` is reported as 0.336.
With `AATATGT` the E-score was 0.323.
For `AGATATA`, the E-score was 0.429.
`ATTTAAA` gave an E-score of 0.463.
`AAAAACC` gave an E-score of 0.281.
`ATATCAT` has an E-score of 0.369.
`ACATATG` has an E-score of 0.271.

Block 3 — method: RNA Bind-n-Seq; molecule type: RNA; sample: in vitro; concentration: 200 nM; notes: whole 134-nt RNA, ends assumed; with: 150 mM KCl; baseline: input library; reading: higher = stronger binding
Target: Fragile X messenger ribonucleoprotein 1, C-terminal low-complexity region (Fmr1, Mus musculus, UniProt P35922)
The log2 enrichment of `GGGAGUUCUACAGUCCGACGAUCUGGGAGGUGGAUUUUGUUUAUUUUUUUAGCUCAUUUCCAGGGGUGGGAAUUUUUUUUUAAAAUGUGUCAUGAAUAAAGUUGUUUUUGAAAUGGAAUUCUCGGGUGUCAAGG` is reported as 0.1.
`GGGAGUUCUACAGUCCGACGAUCCCUCAAGUCCUGUGCUACACAUCGUAUGUACCGAAUCGGUGGUUUUUGGUGGAAAGUAUUAUGUUACGCCGUUCGGAUCUGCACUUCCAGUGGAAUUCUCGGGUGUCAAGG` gave a log2 enrichment of 0.19.
`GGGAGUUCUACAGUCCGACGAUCCACAGACAACACGCACCCACACGGACACAGAGGGAAGGGGUUGGGAUGGGGACAGGGUGCACAGCAGGGCGGGGUAGGACCCCAGCCCCUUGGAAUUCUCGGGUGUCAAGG` has a log2 enrichment of 1.25.
The log2 enrichment of `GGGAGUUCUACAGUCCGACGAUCUGGCCCUGGUGGCAUGCGGGGAGUAAGAGGUGGCCUCAUGGAUCGUGGUGGUCCCGGUGGAAUGUUCAGAGGUGGCCGUGGUGGAGACAGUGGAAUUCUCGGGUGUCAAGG` is reported as -0.0241.
`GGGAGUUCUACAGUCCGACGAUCCUCAAGUCCUGUGCUACACAUCGUAUGUACCGAAUCGGUUUUUUUGGAGGUGGAAAGUAUUAUGUUACGCCGUUCGGAUCUGCACUUCCAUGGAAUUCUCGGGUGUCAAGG` has a log2 enrichment of -0.167.
`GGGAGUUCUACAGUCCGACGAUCCAAGUCCUGUGCUACACAUCGUAUGUACCGAAUCGGGGUGGGGUUUGGGGAGGGGAAAGUAUUAUGUUACGCCGUUCGGAUCUGCACUUCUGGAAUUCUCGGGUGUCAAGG` has a log2 enrichment of 1.32.
`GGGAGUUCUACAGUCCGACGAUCACCAUGCAGGUGGGCAUCUUUGGGAAGUGGGGCAAGGGGGGGAUAGGGAGGGGGGUAACACUUUGGGAACAGGUGGUCCAAGGUCGUUUCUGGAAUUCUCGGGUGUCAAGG` has a log2 enrichment of 0.594.
`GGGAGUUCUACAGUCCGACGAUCUGGGAGGUGGAUUUUGUUUAUUUUUUUAGCUCAUUUCCAGGGGUGGGAAUUUUUUUUUAAUAUGUGUCAUGACUAAAGUUGUUUUUGAAAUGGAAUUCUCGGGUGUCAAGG` gave a log2 enrichment of 0.546.
For `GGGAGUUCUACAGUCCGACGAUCCUCAAGUCCUGUGCUACACAUCGUAUGUACCGAAUCGGGGCGGGCGGGCGGGGAAAGUAUUAUGUUACGCCGUUCGGAUCUGCACUUCCAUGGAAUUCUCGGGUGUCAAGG`, the log2 enrichment was 0.318.

Block 4 — target: CCND1, cyclin fold, Cln2 fusion (human); method: yeast growth competition, sequencing; sample: yeast; notes: weak parent motif; baseline: not given; reading: higher = stronger binding
Parent: E2F3 docking peptide (human); PPAKRRLELGESG
Under “normalised enrichment score”, `PPAKRALELGESG [R6A]` is recorded as 0.0991.
`PPAKRRLEFGESG [L9F]` — result for “normalised enrichment score”: 2.34.
`PPAARRLELGESG [K4A]` — result for “normalised enrichment score”: 0.704.
`PPAKRRLELGASG [E11A]` — result for “normalised enrichment score”: 0.492.
`PAAKRRLELGESG [P2A]`: “normalised enrichment score” -0.0242.
For `PPAKRRLELGEAG [S12A]`, “normalised enrichment score” read 0.3.
For `APAKRRLELGESG [P1A]`, “normalised enrichment score” read 0.395.

Further values, each from its own experiment
The fold induction of `PhoQ, residues 284 288 289 292 302 303 TSTLRA` is reported as 1.69 (PhoP, residues 12 14 15 18 19 NMSSL (Escherichia coli, UniProt P23836); Sort-seq, item: YFP reporter; E. coli; PhoQ-PhoP variant library, with: 10 µM Mg2+; baseline: high Mg2+ state, higher = stronger signaling).
